# Results of several laboratories.
# Parts stem from different laboratories: compare values within a part only. pIC50: −log10 of the molar value.
# Sequence of UniProt O00506 (whole entry, looked up): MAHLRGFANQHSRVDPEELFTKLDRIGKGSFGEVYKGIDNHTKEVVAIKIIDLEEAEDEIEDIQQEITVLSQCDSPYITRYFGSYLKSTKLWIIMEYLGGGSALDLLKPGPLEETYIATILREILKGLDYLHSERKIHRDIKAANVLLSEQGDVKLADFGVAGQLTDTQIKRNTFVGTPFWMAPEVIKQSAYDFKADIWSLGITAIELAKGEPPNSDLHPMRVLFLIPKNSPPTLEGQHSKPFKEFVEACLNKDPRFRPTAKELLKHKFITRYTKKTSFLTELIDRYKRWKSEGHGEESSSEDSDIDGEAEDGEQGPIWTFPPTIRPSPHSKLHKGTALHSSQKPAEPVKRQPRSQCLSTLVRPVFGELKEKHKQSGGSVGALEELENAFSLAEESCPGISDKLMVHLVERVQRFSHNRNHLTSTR
# Sequence of UniProt P24723 (whole entry, looked up): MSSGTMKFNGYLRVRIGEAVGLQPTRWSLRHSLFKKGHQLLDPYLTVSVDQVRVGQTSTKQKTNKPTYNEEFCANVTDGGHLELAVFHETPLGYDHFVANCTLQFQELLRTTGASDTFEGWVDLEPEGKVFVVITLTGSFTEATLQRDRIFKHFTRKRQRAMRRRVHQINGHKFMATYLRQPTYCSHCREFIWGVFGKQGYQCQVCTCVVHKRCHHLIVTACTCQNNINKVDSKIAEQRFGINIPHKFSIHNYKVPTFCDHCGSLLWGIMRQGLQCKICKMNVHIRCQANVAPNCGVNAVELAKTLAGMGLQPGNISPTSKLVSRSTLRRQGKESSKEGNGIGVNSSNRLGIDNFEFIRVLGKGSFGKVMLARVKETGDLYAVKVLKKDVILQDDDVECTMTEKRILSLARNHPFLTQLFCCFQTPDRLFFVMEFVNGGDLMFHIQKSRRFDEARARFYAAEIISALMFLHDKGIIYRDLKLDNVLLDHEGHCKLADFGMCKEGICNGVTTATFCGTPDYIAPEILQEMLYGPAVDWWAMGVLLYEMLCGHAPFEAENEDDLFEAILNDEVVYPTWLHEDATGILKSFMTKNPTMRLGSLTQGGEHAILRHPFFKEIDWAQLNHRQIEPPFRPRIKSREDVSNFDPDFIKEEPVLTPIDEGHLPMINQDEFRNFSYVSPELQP
# Sequence of UniProt Q04771 (whole entry, looked up): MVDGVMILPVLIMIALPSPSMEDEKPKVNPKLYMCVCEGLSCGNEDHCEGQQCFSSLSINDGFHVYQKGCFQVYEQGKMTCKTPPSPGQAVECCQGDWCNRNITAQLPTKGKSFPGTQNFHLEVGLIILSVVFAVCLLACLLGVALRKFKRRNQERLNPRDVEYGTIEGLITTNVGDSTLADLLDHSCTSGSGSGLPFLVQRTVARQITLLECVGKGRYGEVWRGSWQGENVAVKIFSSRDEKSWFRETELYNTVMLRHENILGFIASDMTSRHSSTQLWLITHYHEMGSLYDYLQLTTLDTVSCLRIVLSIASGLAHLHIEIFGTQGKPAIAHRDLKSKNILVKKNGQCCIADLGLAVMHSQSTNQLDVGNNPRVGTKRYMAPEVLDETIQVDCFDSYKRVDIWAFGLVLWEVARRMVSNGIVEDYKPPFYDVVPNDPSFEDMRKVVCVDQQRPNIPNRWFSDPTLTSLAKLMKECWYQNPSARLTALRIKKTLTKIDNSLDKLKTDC

# Block 1
# Target: Insulin-like growth factor 1 receptor (IGF1R, Homo sapiens, UniProt P08069)
# Sequence of UniProt P08069 (whole entry, looked up): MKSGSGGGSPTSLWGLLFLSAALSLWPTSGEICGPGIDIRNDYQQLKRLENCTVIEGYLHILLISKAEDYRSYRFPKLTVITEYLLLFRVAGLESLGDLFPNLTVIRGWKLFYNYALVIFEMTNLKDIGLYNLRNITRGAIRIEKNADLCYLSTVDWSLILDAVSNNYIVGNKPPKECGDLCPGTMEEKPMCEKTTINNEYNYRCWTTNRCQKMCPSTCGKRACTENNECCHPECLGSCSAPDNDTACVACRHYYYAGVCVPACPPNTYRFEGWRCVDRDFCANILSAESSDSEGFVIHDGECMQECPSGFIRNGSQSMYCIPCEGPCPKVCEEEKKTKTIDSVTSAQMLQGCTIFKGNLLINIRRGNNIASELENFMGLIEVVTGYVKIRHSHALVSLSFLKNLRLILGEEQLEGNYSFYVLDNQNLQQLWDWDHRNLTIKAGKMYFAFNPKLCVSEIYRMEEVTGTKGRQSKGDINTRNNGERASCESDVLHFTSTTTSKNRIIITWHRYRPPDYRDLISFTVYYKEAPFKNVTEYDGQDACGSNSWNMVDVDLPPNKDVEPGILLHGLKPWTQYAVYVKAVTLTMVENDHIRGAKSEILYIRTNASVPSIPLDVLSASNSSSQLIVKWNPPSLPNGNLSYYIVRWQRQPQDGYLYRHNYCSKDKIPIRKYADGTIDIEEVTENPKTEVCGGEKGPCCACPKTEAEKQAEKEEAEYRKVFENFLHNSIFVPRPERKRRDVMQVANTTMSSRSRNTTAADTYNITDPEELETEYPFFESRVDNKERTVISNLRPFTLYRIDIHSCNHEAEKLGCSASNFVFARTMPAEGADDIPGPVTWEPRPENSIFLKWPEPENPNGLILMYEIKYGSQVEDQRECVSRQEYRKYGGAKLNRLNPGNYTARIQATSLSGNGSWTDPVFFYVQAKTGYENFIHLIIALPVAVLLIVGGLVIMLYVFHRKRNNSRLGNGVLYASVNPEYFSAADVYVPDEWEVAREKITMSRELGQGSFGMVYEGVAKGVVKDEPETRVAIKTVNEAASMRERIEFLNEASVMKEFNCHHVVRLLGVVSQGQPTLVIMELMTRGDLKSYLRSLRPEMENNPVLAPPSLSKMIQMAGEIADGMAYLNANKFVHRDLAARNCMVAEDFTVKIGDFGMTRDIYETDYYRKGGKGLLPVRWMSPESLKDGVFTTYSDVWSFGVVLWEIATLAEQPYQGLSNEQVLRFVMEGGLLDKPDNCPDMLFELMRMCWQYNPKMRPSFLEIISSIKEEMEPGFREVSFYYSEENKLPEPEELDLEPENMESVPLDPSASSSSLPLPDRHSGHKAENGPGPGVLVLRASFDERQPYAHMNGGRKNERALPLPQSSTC
# Effect on: enzyme activity
# Mode: inhibitor
# Tested at: 0.5 µM
# Baseline: control
SMILES,remaining activity
OCC(O)CCON=C1C(c2c(O)[nH]c3ccccc23)=Nc2ccccc21 (stereo not shown),39.1%
COc1ccc(OC)c2c(=S)c3ccccc3[nH]c12,97.2%
COc1ccc(C(=O)Nc2sc3c(c2C(N)=O)CCCC3)cc1OC,97.7%
C#Cc1cccc(Nc2ncnc3cc(OCCOC)c(OCCOC)cc23)c1,91.6%
Cc1cccc(-c2[nH]c(C(C)(C)C)nc2-c2ccc3c(c2)OCO3)n1,96.2%
Nc1ccc2ncnc(NCCc3ccc(Oc4ccccc4)cc3)c2c1,99.7%
COc1ccc(CNC(=O)Nc2ncc([N+](=O)[O-])s2)cc1,101%
CNC(=O)c1cc(Oc2ccc(NC(=O)Nc3ccc(Cl)c(C(F)(F)F)c3)cc2)ccn1,94.3%
O=C(O)c1ccc2c3c1cccc3c(=O)n1c3ccccc3nc21,100%
O=C1NC(=O)C(c2cn(CCCO)c3ncccc23)=C1c1cnccn1,98.4%
NCCNc1ncc(C(N)=O)c(Nc2cccc(C(F)(F)F)c2)n1,84.1%
N#CC(C#N)=C(N)/C(C#N)=C/c1ccc(O)cc1,90.6%
O=C(Nc1cccc(Nc2cc(Nc3cccc(C(F)(F)F)c3)ncn2)c1)C1CC1,105%
O=C1NC(=O)C(c2cn(CCCn3ccnc3)c3ccccc23)=C1Nc1ccccc1,95.3%
O=C(CCCc1ccc(-c2ccccc2F)cc1)Nc1ccc(O)cc1,106%

# Block 2
# Target: Beta-1 adrenergic receptor (ADRB1, Homo sapiens, UniProt P08588)
# Sequence of UniProt P08588 (whole entry, looked up): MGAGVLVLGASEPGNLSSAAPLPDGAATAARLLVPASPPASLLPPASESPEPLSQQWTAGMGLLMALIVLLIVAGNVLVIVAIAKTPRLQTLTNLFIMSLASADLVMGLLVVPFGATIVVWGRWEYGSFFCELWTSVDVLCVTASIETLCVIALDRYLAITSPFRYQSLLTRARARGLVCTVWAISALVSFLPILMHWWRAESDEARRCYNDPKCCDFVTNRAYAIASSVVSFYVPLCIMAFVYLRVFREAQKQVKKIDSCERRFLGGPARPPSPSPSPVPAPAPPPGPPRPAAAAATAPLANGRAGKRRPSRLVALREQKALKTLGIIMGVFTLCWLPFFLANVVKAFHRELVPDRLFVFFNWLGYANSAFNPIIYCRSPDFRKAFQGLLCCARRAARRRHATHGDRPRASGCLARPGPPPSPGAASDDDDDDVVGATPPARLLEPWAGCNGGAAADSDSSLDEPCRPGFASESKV
# Mode: antagonist
SMILES,pIC50
CN(C)c1ccc(CNC2(Cc3cc(-c4ccc(F)cc4)on3)COC2)cc1,≤ 4.00
O=c1ccn(Cc2cnn(-c3ccccc3)n2)c2ccccc12,≤ 4.00
Cc1noc2c(-c3ccc([S+](C)(=O)[O-])cc3)cc(-c3ccc(F)cc3)nc12,≤ 4.00
COc1ccccc1N1CCN(C(=O)c2ccc(C)n2C)CC1,≤ 4.00
CN(Cc1ccc(F)cc1)Cc1ccccc1OCC(O)CN1CCCCC1 (stereo not shown),≤ 4.00
CNc1nc(-c2cccc3ccccc23)ccc1C#N,≤ 4.00

# Block 3
# Structure (SMILES): COc1ccc2c(c1)O[C@H](c1ccc(OC)c(OC)c1)C[C@@H]2NC(=O)C1(c2ccc3c(c2)OC(F)(F)O3)CC1
# Effect on: cell-free assay
# Technique: competition with immobilised ligand
# Tested at: 1 µM
target,remaining binding [%]
"Insulin-like growth factor 1 receptor (IGF1R, Homo sapiens, UniProt P08069)",98
"Protein kinase C eta type (PRKCH, Homo sapiens, UniProt P24723)",100
"Serine/threonine-protein kinase 25 (STK25, Homo sapiens, UniProt O00506)",100
"Activin receptor type-1 (ACVR1, Homo sapiens, UniProt Q04771)",98

# Block 4
# Organism: Plasmodium berghei
# Mode: inhibitor
# Cells: Huh-7
# Strain: GFP-expressing, liver stage
# Tested at: 10 µM
# Time: 24 h
# Baseline: untreated control
Structure (SMILES),infection rate [%]
CC(=O)OCC(COC(C)=O)OC(C)=O,95.6
Cc1cc2cc3c(C)cc(=O)oc3c(C)c2o1,119
O=C1c2ccccc2C(=O)C1c1ccccc1,97
CC1=C(C/C=C(\C)CCC[C@H](C)CCC[C@H](C)CCCC(C)C)C(=O)c2ccccc2C1=O,100
CNC(=C[N+](=O)[O-])NCCSCc1ccc(CN(C)C)o1,112

# Block 5
# Cell line: mouse MPNST tumor cells
# Technique: high-content nuclear imaging
# Refers to: cell number
# Tested at: 10 µM
# Time: 12 h
# Setting: mean of 2 replicates
# Baseline: plate mean
# Direction: higher = more cells
Compound,nuclei count
OC(CN1CCC(Cc2ccc(F)cc2)CC1)c1ccc(Cl)cc1 (stereo not shown),-0.00918 z-score
c1ccc(-c2ccc(C(c3ccccc3)n3ccnc3)cc2)cc1 (stereo not shown),1.47 z-score
O=C(CCCCCCCn1cc(-c2cccnc2)nn1)Nc1ccccc1-c1ccccc1,-0.2 z-score

# Further values, each from its own experiment
SMILES,species,dose,setting,measurement,value
CC(C)n1cnc(-c2ccc(F)cc2)c1-c1ncc(C(=O)Nc2ccc(N3CCN(C)CC3)cc2)[nH]1,"human, idiopathic pulmonary fibrosis",30 mg once daily,"trial, treatment-emergent",patients with IPF worsening,0%

# Excerpt of the above (block 4):
Structure (SMILES),infection rate [%]
CC(=O)OCC(COC(C)=O)OC(C)=O,95.6
Cc1cc2cc3c(C)cc(=O)oc3c(C)c2o1,119
O=C1c2ccccc2C(=O)C1c1ccccc1,97
CC1=C(C/C=C(\C)CCC[C@H](C)CCC[C@H](C)CCCC(C)C)C(=O)c2ccccc2C1=O,100
CNC(=C[N+](=O)[O-])NCCSCc1ccc(CN(C)C)o1,112
